# Measurements gathered from unrelated publications.
# Every numbered part comes from another study and shows a few of its results, in no order.
# Sequence of UniProt P21917 (whole entry, looked up): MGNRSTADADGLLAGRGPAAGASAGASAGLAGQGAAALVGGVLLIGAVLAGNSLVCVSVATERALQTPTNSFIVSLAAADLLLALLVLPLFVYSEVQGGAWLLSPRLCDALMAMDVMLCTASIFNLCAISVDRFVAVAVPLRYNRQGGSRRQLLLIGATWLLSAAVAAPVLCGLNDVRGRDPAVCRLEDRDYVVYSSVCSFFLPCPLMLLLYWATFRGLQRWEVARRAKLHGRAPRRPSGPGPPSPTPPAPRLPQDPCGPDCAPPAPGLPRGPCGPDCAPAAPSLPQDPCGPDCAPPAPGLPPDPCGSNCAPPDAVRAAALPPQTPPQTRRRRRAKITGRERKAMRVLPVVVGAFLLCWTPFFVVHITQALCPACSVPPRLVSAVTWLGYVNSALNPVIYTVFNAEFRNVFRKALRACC
# Sequence of UniProt P35626 (whole entry, looked up): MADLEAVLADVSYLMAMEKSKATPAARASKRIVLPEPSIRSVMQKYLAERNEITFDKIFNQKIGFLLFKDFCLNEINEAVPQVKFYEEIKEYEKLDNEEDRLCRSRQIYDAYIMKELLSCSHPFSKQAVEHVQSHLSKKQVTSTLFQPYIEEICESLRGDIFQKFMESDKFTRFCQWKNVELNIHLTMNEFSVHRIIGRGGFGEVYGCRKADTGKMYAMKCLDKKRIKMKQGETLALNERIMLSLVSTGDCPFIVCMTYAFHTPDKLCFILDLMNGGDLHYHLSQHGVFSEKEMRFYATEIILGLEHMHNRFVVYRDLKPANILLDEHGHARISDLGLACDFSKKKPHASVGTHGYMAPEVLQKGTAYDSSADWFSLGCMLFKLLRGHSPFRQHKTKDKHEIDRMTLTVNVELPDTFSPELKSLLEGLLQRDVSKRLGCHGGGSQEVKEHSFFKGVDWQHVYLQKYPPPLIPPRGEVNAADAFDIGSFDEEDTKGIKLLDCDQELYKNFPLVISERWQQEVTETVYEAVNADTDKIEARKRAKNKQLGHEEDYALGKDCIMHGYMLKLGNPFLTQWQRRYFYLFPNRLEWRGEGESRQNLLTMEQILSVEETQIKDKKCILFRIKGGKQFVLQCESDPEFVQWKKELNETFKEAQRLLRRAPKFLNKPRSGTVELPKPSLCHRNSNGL
# Sequence of UniProt P08173 (whole entry, looked up): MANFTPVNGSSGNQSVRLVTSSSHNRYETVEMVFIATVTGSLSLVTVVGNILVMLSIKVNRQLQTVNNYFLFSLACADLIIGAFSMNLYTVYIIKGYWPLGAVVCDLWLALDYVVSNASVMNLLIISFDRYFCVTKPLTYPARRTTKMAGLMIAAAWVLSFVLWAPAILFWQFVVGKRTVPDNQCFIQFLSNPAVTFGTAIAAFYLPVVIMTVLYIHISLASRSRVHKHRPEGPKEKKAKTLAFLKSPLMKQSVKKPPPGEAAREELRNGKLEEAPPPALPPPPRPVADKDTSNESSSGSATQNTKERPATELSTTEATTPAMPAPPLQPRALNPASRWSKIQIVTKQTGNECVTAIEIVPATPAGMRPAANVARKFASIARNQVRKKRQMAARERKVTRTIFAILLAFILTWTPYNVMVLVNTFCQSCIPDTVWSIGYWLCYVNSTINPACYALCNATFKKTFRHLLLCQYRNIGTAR
# Sequence of UniProt P18089 (whole entry, looked up): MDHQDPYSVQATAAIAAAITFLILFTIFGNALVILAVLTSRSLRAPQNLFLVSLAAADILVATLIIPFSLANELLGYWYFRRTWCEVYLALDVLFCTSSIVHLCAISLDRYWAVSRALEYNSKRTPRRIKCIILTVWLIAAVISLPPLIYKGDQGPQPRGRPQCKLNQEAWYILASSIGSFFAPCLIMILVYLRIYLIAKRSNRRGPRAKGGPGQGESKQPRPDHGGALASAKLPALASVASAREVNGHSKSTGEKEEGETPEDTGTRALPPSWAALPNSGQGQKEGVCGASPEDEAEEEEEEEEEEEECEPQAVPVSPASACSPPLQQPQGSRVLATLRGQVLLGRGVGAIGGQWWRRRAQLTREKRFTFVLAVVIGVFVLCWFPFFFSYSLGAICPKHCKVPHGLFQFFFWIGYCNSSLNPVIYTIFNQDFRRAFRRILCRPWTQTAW
# Sequence of UniProt O95747 (whole entry, looked up): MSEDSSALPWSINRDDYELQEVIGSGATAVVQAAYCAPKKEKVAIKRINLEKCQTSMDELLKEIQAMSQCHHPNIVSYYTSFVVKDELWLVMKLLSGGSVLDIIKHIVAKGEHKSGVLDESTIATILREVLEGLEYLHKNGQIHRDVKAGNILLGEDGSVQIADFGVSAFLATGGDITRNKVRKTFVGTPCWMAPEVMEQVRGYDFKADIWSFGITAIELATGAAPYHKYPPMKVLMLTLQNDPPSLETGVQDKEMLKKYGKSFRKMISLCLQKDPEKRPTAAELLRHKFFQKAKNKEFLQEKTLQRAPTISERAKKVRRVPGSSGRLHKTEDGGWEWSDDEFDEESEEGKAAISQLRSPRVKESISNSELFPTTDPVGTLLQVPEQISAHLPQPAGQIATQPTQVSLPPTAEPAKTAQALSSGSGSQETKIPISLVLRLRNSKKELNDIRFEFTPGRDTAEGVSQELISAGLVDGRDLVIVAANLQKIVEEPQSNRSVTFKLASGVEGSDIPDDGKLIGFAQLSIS
# Sequence of UniProt P35368 (whole entry, looked up): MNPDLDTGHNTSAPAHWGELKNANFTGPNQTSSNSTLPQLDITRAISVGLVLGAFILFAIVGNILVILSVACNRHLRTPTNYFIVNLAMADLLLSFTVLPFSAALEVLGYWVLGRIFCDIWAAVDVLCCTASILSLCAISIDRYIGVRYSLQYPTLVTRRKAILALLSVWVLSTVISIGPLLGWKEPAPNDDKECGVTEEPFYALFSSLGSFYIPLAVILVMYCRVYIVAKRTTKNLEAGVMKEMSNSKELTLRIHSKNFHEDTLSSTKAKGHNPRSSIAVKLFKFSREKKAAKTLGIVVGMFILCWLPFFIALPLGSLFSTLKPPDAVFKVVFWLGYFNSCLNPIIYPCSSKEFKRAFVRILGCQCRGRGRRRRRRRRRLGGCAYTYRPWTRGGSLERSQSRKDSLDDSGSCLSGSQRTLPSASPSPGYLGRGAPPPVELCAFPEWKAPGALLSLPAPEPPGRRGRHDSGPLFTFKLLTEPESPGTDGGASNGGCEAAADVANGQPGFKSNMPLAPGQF
# Sequence of UniProt Q9H3N8 (whole entry, looked up): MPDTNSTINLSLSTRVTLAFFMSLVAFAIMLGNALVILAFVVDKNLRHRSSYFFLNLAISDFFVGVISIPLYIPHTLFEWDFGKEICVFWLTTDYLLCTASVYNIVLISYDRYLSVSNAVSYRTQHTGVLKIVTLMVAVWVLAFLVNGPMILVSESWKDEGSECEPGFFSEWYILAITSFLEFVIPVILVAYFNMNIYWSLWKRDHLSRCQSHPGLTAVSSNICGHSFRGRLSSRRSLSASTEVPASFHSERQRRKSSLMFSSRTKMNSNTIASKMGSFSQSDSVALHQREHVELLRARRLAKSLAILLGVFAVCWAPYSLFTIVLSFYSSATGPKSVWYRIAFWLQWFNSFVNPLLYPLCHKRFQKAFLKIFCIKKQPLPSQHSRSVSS
# Sequence of UniProt P07948 (whole entry, looked up): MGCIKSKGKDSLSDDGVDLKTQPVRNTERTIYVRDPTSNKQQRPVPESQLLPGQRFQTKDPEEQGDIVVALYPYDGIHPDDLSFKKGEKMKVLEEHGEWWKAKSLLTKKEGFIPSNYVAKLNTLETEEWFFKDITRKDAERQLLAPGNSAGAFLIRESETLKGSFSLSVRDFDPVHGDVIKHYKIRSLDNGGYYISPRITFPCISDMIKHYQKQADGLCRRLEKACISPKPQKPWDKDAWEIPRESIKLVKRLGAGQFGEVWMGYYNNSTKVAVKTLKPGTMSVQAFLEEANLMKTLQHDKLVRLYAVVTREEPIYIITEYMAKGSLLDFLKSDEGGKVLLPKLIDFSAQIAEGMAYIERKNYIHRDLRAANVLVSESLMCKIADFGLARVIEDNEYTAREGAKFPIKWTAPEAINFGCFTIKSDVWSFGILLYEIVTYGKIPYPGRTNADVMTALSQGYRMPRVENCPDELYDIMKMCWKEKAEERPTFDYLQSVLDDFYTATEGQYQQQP
# Sequence of UniProt P45984 (whole entry, looked up): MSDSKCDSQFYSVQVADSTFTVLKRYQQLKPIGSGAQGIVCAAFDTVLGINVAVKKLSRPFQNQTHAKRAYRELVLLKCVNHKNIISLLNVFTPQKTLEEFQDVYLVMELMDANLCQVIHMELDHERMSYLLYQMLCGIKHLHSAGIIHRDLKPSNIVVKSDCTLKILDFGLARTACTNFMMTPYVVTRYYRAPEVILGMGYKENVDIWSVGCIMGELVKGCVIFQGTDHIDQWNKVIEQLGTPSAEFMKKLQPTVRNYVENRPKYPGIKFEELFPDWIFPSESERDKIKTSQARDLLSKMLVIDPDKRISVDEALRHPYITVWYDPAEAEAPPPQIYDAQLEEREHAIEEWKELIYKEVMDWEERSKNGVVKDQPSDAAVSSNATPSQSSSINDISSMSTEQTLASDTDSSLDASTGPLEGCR

# Series 1 — observed: cell-free assay; concentration: 10 µM
# SMILES: CNCc1ccccc1-c1csc([C@@H](C)Nc2nc(C)nc3cc(OC)c(OC)cc23)c1
target,inhibition [%]
"D(3) dopamine receptor (DRD3, Homo sapiens, UniProt P35462)",56.8
"D(2) dopamine receptor (DRD2, Homo sapiens, UniProt P14416)",32.3
"Alpha-1B adrenergic receptor (ADRA1B, Homo sapiens, UniProt P35368)",85.8
"D(4) dopamine receptor (DRD4, Homo sapiens, UniProt P21917)",56.7
"Muscarinic acetylcholine receptor M4 (CHRM4, Homo sapiens, UniProt P08173)",43.1
"Beta-1 adrenergic receptor (ADRB1, Homo sapiens, UniProt P08588)",-11.2
"Alpha-1D adrenergic receptor (ADRA1D, Homo sapiens, UniProt P25100)",75
"Histamine H4 receptor (HRH4, Homo sapiens, UniProt Q9H3N8)",42.1
"Beta-3 adrenergic receptor (ADRB3, Homo sapiens, UniProt P13945)",20
"Beta-2 adrenergic receptor (ADRB2, Homo sapiens, UniProt P07550)",12.1
"Muscarinic acetylcholine receptor M2 (CHRM2, Homo sapiens, UniProt P08172)",74.2
"Histamine H3 receptor (HRH3, Homo sapiens, UniProt Q9Y5N1)",26.7
"Histamine H2 receptor (HRH2, Homo sapiens, UniProt P25021)",100
"Sigma intracellular receptor 2 (TMEM97, Homo sapiens, UniProt Q5BJF2)",94.8
"Alpha-2B adrenergic receptor (ADRA2B, Homo sapiens, UniProt P18089)",64.2
"Alpha-2C adrenergic receptor (ADRA2C, Homo sapiens, UniProt P18825)",94.2

# Series 2 — observed: kinase activity; action: inhibitor; technique: ADP-Glo; time: 1 h
# Compound: CC[C@@H](C)c1nc2cc(Nc3ccnc4ccc(S(=O)(=O)C(C)C)cc34)ccc2s1
# Target: Receptor-interacting serine/threonine-protein kinase 3 (RIPK3, Homo sapiens, UniProt Q9Y572)
# Sequence of UniProt Q9Y572 (whole entry, looked up): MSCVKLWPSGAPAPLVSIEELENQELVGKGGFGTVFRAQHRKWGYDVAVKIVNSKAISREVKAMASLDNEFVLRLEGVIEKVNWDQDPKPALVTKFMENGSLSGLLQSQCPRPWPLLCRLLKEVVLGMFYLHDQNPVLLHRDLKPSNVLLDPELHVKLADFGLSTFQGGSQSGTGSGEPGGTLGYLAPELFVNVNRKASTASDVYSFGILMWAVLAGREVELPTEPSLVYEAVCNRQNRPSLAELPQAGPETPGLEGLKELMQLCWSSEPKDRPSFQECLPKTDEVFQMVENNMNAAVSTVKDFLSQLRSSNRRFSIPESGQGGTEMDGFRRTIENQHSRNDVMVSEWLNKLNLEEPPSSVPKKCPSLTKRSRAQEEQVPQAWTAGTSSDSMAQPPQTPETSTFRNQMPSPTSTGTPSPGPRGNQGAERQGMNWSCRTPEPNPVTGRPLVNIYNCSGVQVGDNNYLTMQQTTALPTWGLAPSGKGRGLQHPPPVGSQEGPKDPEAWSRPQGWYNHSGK
conditions,inhibition [%]
55.56 nM,103
6.173 nM,73.4
166.7 nM,108
2.058 nM,35.7
18.52 nM,96.4

# Series 3 — host: human; sample: microsomes or S9; concentration: 2 µM; time: 0.5 h
SMILES,remaining compound
COc1cccc2c1Oc1ccsc1C=C2C#N,80%
CC(C)(C)OC(=O)c1ccc(-c2c[nH]c(-c3ccc(S(C)(=O)=O)c(F)c3)n2)cc1,89.6%
O=c1c2cc3c(=O)n(-c4cc(Cl)cc(Cl)c4)ccc3nc2ccn1CCCO,98%
COc1ccccc1NC(=O)C1c2ccccc2Oc2ccccc21,25%
CC1(COc2ccc(Br)cc2)CCC(C(C)(C)C)=NO1 (centres unmarked),87.6%
CC(C)Cc1ccc(C(C)C(=O)Nc2ccc(O)cc2C(=O)O)cc1 (centres unmarked),2.8%
Cc1cc(-c2c3ccccc3c(Br)c3sc(C)c(C)c23)cc(C)c1O[C@H](Cc1ccccc1)C(=O)O,> 99%
C(=C\c1ccccc1)/CN1CCN(c2cnc3ccccc3n2)CC1,> 100%
CC(C)n1ncc2c1NC(=O)CC21C(=O)N(C)c2cc(Cl)cc(Cl)c21 (centres unmarked),> 99.9%
CN1C(=O)c2ccccc2C(C(=O)Nc2nc3ccccc3[nH]2)C1c1ccccc1 (centres unmarked),61.2%
CC(C)(C)c1ccc(C(=O)Nc2cc(-n3cnnn3)ccc2N2CCOCC2)cc1,76.4%
N#Cc1cc(-n2ccnc2-c2cc3n(n2)CCNC3)ccc1N1CCOCC1,45%
CC(C)(C)c1nnc2ccc(NC3CCCc4cn(C5CCCC5)nc43)nn12 (centres unmarked),30.3%

# Series 4 — Compound: CC(C)N(CCC(=O)c1ccc2ccccc2c1)Cc1ccccc1; observed: enzyme activity; action: inhibitor; concentration: 0.5 µM; relative to: control
target,remaining activity [%]
"Tyrosine-protein kinase Lyn, isoform B (LYN, Homo sapiens, UniProt P07948)",89.3
"Cyclin-dependent kinase 4, with cyclin D1 (CDK4, Homo sapiens, UniProt P11802)",103
"Serine/threonine-protein kinase STK11 (STK11, Homo sapiens, UniProt Q15831)",94.2
"Serine/threonine-protein kinase Chk2 (CHEK2, Homo sapiens, UniProt O96017)",87.5
"TGF-beta receptor type-2 (TGFBR2, Homo sapiens, UniProt P37173)",98.8
"Inhibitor of nuclear factor kappa-B kinase subunit epsilon (IKBKE, Homo sapiens, UniProt Q14164)",93
"Calcium/calmodulin-dependent protein kinase type II subunit delta (CAMK2D, Homo sapiens, UniProt Q13557)",90
"cGMP-dependent protein kinase 1, isoform beta (PRKG1, Homo sapiens, UniProt Q13976)",102
"Calcium/calmodulin-dependent protein kinase kinase 2 (CAMKK2, Homo sapiens, UniProt Q96RR4)",85.2
"Inhibitor of nuclear factor kappa-B kinase subunit beta (IKBKB, Homo sapiens, UniProt O14920)",101
"Protein kinase C alpha type (PRKCA, Homo sapiens, UniProt P17252)",107
"Protein kinase C beta type, isoform beta-I (PRKCB, Homo sapiens, UniProt P05771)",92.6
"Serine/threonine-protein kinase 10 (STK10, Homo sapiens, UniProt O94804)",93.6
"Mitogen-activated protein kinase kinase kinase 3 (MAP3K3, Homo sapiens, UniProt Q99759)",102
"Death-associated protein kinase 2 (DAPK2, Homo sapiens, UniProt Q9UIK4)",99.6
"G protein-coupled receptor kinase 3 (GRK3, Homo sapiens, UniProt P35626)",88.9
"TGF-beta receptor type-1 (TGFBR1, Homo sapiens, UniProt P36897)",92.5
"Serine/threonine-protein kinase OSR1 (OXSR1, Homo sapiens, UniProt O95747)",106
"Death-associated protein kinase 1 (DAPK1, Homo sapiens, UniProt P53355)",97.9
"Mitogen-activated protein kinase 9 (MAPK9, Homo sapiens, UniProt P45984)",100
"STE20/SPS1-related proline-alanine-rich protein kinase (STK39, Homo sapiens, UniProt Q9UEW8)",88.3
"Cyclin-dependent kinase 5, with p25 (CDK5, Homo sapiens, UniProt Q00535)",96.5

# Excerpt of the above (series 4):
target,remaining activity [%]
"G protein-coupled receptor kinase 3 (GRK3, Homo sapiens, UniProt P35626)",88.9
"Mitogen-activated protein kinase 9 (MAPK9, Homo sapiens, UniProt P45984)",100
"Calcium/calmodulin-dependent protein kinase type II subunit delta (CAMK2D, Homo sapiens, UniProt Q13557)",90
"Death-associated protein kinase 1 (DAPK1, Homo sapiens, UniProt P53355)",97.9
"Death-associated protein kinase 2 (DAPK2, Homo sapiens, UniProt Q9UIK4)",99.6
"Serine/threonine-protein kinase OSR1 (OXSR1, Homo sapiens, UniProt O95747)",106
"STE20/SPS1-related proline-alanine-rich protein kinase (STK39, Homo sapiens, UniProt Q9UEW8)",88.3
"Serine/threonine-protein kinase STK11 (STK11, Homo sapiens, UniProt Q15831)",94.2
"Inhibitor of nuclear factor kappa-B kinase subunit epsilon (IKBKE, Homo sapiens, UniProt Q14164)",93
